Results from different studies.
Each line is one published result; not all experiments were run side by side. ± marks the error that the study gave.
MAPK8: Mitogen-activated protein kinase 8 (MAPK8, Homo sapiens, UniProt P45983)
EGLN1: Egl nine homolog 1 (EGLN1, Homo sapiens, UniProt Q9GZT9)
BLVRB: Flavin reductase (NADPH) (BLVRB, Homo sapiens, UniProt P30043)
SIRT6: NAD-dependent protein deacylase sirtuin-6 (SIRT6, Homo sapiens, UniProt Q8N6T7)
KDM4E: Lysine-specific demethylase 4E (KDM4E, Homo sapiens, UniProt B2RXH2)

By UniProt entry, the sequences of proteins in these tests, tags left out. Residues count along the entry.
UniProt P45983, 1-384 isoform 3: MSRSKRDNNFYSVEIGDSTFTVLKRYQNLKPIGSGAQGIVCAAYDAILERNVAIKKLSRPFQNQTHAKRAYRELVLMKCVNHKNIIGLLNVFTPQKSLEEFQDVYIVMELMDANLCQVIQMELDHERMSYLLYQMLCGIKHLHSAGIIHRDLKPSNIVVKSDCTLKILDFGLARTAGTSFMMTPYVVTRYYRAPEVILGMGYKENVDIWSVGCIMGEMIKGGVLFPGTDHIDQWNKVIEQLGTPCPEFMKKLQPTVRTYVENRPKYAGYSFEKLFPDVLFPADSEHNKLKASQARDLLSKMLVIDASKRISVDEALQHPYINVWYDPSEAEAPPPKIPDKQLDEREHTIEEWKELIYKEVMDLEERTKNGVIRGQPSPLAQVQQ
UniProt Q9GZT9, whole entry: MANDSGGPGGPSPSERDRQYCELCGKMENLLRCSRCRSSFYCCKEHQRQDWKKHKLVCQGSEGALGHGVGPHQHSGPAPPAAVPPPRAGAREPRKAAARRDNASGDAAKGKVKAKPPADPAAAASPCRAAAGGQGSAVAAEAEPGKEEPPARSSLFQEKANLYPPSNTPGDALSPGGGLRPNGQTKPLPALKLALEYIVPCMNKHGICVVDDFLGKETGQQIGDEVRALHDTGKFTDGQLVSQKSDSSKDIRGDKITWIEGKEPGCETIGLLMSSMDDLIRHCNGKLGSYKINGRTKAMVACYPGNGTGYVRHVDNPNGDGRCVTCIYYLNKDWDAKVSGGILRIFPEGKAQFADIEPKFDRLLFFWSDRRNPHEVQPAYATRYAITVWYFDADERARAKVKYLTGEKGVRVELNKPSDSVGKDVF
UniProt P30043, whole entry: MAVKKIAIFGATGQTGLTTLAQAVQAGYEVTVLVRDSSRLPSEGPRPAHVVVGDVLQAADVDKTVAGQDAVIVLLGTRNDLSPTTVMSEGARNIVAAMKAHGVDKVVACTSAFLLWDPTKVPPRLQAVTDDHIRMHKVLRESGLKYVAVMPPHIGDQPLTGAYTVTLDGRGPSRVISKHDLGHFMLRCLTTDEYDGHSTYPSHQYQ
UniProt Q8N6T7, whole entry: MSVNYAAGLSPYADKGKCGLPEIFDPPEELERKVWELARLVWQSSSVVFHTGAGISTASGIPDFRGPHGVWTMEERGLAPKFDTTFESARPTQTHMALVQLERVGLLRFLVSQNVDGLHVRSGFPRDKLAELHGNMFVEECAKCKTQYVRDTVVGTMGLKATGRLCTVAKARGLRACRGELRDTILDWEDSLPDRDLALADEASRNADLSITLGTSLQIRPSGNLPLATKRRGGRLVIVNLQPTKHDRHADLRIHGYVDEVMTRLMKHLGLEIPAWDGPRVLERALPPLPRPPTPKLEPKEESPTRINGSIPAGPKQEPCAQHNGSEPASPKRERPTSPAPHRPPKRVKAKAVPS
UniProt B2RXH2, whole entry: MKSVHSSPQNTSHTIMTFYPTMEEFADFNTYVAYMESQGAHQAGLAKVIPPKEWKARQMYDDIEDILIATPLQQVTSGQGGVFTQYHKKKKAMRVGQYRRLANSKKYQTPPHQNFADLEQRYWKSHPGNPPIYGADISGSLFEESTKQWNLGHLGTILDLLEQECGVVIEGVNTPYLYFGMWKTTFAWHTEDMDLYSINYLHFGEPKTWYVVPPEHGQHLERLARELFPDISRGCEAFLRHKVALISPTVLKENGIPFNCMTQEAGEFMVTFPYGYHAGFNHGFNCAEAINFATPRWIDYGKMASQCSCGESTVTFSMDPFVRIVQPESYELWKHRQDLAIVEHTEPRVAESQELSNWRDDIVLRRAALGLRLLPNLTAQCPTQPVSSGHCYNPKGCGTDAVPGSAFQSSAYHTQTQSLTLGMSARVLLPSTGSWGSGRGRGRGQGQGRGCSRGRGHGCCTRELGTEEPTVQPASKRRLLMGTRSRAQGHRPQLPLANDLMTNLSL
UniProt Q13546, whole entry: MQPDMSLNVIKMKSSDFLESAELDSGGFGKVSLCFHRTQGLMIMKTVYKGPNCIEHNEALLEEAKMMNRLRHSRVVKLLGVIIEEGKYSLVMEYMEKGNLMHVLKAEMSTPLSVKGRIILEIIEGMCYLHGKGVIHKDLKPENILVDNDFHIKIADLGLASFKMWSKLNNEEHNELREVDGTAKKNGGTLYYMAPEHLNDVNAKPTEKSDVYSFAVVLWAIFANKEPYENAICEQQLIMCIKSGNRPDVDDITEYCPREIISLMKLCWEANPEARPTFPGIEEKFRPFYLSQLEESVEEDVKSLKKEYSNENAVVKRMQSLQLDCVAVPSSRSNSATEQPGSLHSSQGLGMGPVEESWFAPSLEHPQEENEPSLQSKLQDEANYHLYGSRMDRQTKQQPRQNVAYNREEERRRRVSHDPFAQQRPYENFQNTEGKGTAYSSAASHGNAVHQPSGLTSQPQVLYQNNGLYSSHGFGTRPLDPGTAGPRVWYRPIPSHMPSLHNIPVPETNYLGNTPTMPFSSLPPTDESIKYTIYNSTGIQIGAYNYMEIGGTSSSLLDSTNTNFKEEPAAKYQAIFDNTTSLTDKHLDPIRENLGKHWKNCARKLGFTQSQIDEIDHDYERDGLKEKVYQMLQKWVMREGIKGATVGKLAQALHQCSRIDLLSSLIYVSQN
UniProt P46154, whole entry: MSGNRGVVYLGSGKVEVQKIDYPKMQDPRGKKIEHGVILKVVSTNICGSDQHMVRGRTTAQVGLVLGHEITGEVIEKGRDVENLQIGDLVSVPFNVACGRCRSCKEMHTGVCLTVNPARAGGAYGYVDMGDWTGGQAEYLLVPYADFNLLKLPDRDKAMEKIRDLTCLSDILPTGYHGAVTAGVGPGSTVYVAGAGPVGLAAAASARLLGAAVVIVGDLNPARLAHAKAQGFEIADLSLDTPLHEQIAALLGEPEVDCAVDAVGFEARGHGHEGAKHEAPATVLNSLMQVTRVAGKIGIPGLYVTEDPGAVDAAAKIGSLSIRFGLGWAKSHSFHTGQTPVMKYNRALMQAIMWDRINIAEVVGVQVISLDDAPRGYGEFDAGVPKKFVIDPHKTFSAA
UniProt P09917, whole entry: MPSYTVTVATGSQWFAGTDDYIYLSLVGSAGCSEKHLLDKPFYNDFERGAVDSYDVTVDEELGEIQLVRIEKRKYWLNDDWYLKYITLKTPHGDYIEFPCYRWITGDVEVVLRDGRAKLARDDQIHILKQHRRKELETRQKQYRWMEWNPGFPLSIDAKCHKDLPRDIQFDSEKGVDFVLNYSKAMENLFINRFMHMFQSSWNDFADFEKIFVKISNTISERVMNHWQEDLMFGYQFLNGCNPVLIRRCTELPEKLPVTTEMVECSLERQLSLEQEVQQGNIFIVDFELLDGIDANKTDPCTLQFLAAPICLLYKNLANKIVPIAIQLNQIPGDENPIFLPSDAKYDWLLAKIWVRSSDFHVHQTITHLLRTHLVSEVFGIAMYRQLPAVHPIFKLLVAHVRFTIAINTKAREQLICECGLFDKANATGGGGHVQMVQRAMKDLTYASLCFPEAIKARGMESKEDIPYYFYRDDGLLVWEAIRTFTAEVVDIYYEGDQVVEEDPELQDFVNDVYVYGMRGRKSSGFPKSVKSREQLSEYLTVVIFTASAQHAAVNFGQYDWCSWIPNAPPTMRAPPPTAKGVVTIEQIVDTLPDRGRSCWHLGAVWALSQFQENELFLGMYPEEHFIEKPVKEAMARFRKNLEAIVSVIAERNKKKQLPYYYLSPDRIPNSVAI

Compound	target	assay	test system	setting	how to read	remaining activity
Cc1cc(NC(=O)c2cccc(NC(=O)C3=CC(C)(C)CCC3=O)c2)ccc1Nc1nccc(-c2cccnc2)n1	MAPK8	kinase activity, inhibitor		0.1829 µM, unit not given, with: 10 mM GSH	relative to: DMSO	0.738
O=C(O)c1ccccc1Nc1c(C(=O)O)ccnc1C(=O)O	EGLN1	inhibitor, HTRF		400 µM		100%
COC(=O)[C@@]1(C)C=C(C(=O)Nc2cccc(C(=O)NC34CC(Nc5nccc(-c6cccnc6)n5)(C3)C4)c2)C(=O)CC1	MAPK8	kinase activity, inhibitor		8.363e-05 µM, unit not given, with: 10 mM GSH	relative to: DMSO	1.02
O=C(O)c1ccc(-c2nc(-c3ccccc3F)c3sccn23)cc1	BLVRB			concentration not given		37%
CCCCNC(=O)NC1CC=C(c2cc3c(Nc4cc5ncsc5cc4F)ncnc3s2)CC1 (stereo not shown)	Receptor-interacting serine/threonine-protein kinase 1 (RIPK1, Homo sapiens, UniProt Q13546)	kinase activity		1 µM	relative to: control	109 ± 4%
Nc1nonc1-n1cc(C(=O)N/N=C/c2cccc([N+](=O)[O-])c2)nn1	SIRT6	deacetylase activity, Fluor de Lys		100 µM, with: Ac-RHKK(Ac)-AMC substrate		20.4 ± 5.14%
Cc1cc(O)nc2ccc(NS(=O)(=O)c3cc(Cl)cc(Cl)c3O)cc12	malate dehydrogenase	aggregation counter-screen		100 µM, pH 7.0, 1% DMSO		71%
CCc1c(-c2ccco2)nn2c(=O)cc(-c3cccc(C(=O)O)c3)[nH]c12	BLVRB			concentration not given		14%
O=C(O)c1ccc(Nc2c(C(=O)O)ccnc2C(=O)O)cc1	KDM4E	inhibitor, FDH-coupled spectrophotometry, measured: formaldehyde		200 µM		13%
Nc1nonc1-n1cc(C(=O)N/N=C/c2ccccc2OC(F)(F)F)nn1	SIRT6	deacetylase activity, Fluor de Lys		100 µM, with: Ac-RHKK(Ac)-AMC substrate		48.1 ± 1.02%
O=C(O)c1ccnc(C(=O)O)c1Nc1ccc(F)cc1F	fdhA (Pseudomonas putida, UniProt P46154)	inhibitor, spectrophotometric		200 µM, counterscreen		100%
O=C(CCc1ccc(O)cc1O)c1ccc(O)cc1	Polyunsaturated fatty acid 5-lipoxygenase (ALOX5, Homo sapiens, UniProt P09917)	5-LOX product formation, RP-HPLC	human PMNL	10 µM, with: A23187 and arachidonic acid	relative to: control	60.1 ± 8.2%
Cc1ccccc1Nc1c(C(=O)O)ccnc1C(=O)O	KDM4E	inhibitor, FDH-coupled spectrophotometry, measured: formaldehyde		200 µM		3%
O=C(O)c1cccc(-c2nc(-c3ccccc3F)c3sccn23)c1	BLVRB			concentration not given		47%
COc1ccccc1Nc1c(C(=O)O)ccnc1C(=O)O	EGLN1	inhibitor, HTRF		400 µM		100%
Cc1c(-c2ccccc2)nn2c(=O)cc(-c3cccc(-c4nnn[nH]4)c3)[nH]c12	BLVRB			concentration not given		37%
